Measurements of several laboratories.
Each numbered part is a random draw from the data of one study; scales do not carry over between parts.

Set 1 — method: RNA Bind-n-Seq; form: RNA; matrix: in vitro; concentration: not given; setting: RNA with constant flanks, ends assumed; baseline: input RNA pool; reading: higher = stronger binding; measurement: bound/input enrichment
Target: RING finger protein unkempt homolog, zinc fingers 1-6, GST-SBP tag (UNK, Homo sapiens, UniProt Q9C0B0, residues 30-357)
Constant ends, left off below: GGGAGUUCUACAGUCCGACGAUC … CAACAGAGGAUUGAGCAUCA
Target sequence (chain): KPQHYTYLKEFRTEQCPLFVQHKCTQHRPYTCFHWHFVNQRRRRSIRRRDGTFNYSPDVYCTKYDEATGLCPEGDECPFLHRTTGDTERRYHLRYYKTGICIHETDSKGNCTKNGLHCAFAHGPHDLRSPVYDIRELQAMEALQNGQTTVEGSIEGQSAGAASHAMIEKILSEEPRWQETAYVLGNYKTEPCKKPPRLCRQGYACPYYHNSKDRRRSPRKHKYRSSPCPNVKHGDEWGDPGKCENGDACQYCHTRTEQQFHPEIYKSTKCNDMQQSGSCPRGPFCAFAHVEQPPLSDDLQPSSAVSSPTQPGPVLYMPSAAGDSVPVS
UUGCCACCGUCCGCCAAAAAGUCAGGCCAGAAACCUGUGCUUUCAGAUGUUCACGCAGAGCCCGACAGAAUCACACGGAAACCUGCUUCUGUUUCUCCUACAACACCUACAUCUCCUACG: 0.193 ratio
GCCAGGCCGUAUACUGGGUUCACAUAUCAGGCUGCAGGAAAGGCAGUAUGAUAUAAGGUAAGGGCACCGGAAAUGAAGCUGAAAUGGACACACACACACACACACACACUGAUAAACUUG: 0.489 ratio
AUCACAGACAUCAUAAGUGGCCUUGGCAGUAACAAGUGGAUCCAGCAAAAUCUUCAGUGCUCCGUACUAAACUCAUUAACUCUGUCCCUCGAGGAUCCAUAUGAGCGGUGCUUCAGCCGG: 0.139 ratio
CAAGUACAUCUUGGUGUCAGUGAUGAUCUUGGGUUGCUUGCUCACAUGACUGCGAGUGCCGAGUUAACGUGCACAUCAAGCAUAAUGGAAGAGAAAGACUUCAGAAUUCAUACGACGUCA: 0.0992 ratio
UUUGUAACUUAUCUGUAAAAGGUUUCUCCCUACUGUCAAAAAAAUAUGCAUGUAUAGUAAUCCGGACUUCAUUCCUCCAUGUUUUCUUCCCUUAUCUUACUGUCAUUGUCCUAAAACCUU: 0.671 ratio
AGAAAGCAAAACUUGGAAAGAUUUAAGAAAGGAGAUGUAAGAUUCUUGAUUUGCACAGAUGCCGCUGCUAGAGGAAUUGAUAUCCACGGUGUUCCUUAUGUUAUAAAUGUCACUCUGCCC: 0.34 ratio
GGCUUCAGGAACAUCAUAGCAGAUCCUGUCACCUUCAAGACCAAAUCGAGCUAUGUUGCCUCCGCUACCUUGCAAGCCUACACUUCUAUGCAUCUUUUUUUCCAGUUCAAGACAACAUCC: 0.244 ratio
CGAGUAGUUGGCAAAGAGCAGGGCCAGAAUUUAGCAAGACAGUGGUGUAACUGUGCCUUUUCCGAAUCUUCUGCAAAGUCAAAGAUCAAUGUUAAUGAGAUAUUUUAUGACCUGGUCAGA: 0.694 ratio
UCUCUGUUCAGCCGUUAAUGCUGGGAUCCAUAUUUAGUUUUAUAAGCUUUUCCCUGUUUUCCGUUUCGUUUGGGUUUUUUUGGCUCAUGGAUUUUAUUUUCUGUUUGUCGAUAAGAAAUG: 17.9 ratio
AGAAAUCAAUGUAAUUUUAAACCUCAGAUGGAUCUUGAAGUUAAAGAAAUUUCUCCCGACCGUUAUAAUGCGCAGUUGGUGCAAUUAGAAGCUAUGCUAAGAAAUAAGGAAUUAAAACUU: 2.83 ratio
AAUGCACAUGCACAAUAAUUUCCUGAAAGCCAUAGGACAUGUCUGUAGUCAGCACCACGACCGCACCGUUUCAUGAAAGGCAUGGCGGCUGCAUUUCAUACCACAUCAAAAUACAGUAAC: 0.269 ratio

Set 2 — method: RNA Bind-n-Seq; form: RNA; matrix: in vitro; concentration: 365 nM; baseline: no-protein control; reading: higher = stronger binding; measurement: RBNS enrichment (R)
Target: RNA binding protein fox-1 homolog 2, RRM domain, GST-SBP tag (RBFOX2, Homo sapiens, UniProt O43251-10, residues 100-194)
Setting: natural RNA segment, single round, ends assumed
Constant ends, left off below: GGGAGUUCUACAGUCCGACGAUC … UGGAAUUCUCGGGUGCCAA
Residues (chain): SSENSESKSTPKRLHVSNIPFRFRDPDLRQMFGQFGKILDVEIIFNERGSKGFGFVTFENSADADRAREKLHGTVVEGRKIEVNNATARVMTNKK
AUCAUUUUGGGUCAGACAUCAAUGUCCCUGUCCCCCCUGGGUCCAGCCAAGCUGUGCCCCAUCCCCCAAGCCUCCUGGGAGGAUCCAGCCAAAUCUUGCGACUCCUGGCA: 0.548
CAGUCACAGACGUCGCUUCCUGGGAUUCCAGCACGAUGCCUCCAUAGUUGAAAGACUACACAAAAAGCCACAAUCAUUGCCCGGCCUCCUGAGUCACCUUCUAUCUAUAC: 3.14
UGUGUCUGUCUGUUCGUCUGUCCACCUAUCUUUGUGGAAGUCACUGUGAUGGUAGUGACUUUAUGAGUUGUGAAUGGUCCUUGGCAGUCUGCCUGCUUUCUCAGAGUCUG: 1.78
CCCGCCCGACACCUGCGUGAGCCCUAGGAUCCAGGUCCUCUCUCACCUCUGACCCAGCUCCAUGCCAGAGCAGGAGCCCCGGUCAAUUUUGGACUCUGCACUCCCUCUCC: 0.467
ACGAAGAAUUUGGAAUAGGUUUGGUUACAUCUAUUUCUCAUCCCCUUAUUUUCCACCAUUUAAAAAUAAUAAACAUGUUUCUUACCACCGUAUGUUCAUAUGGAUAAGAC: 0.358
GAGAUGUGUGUUUGACUGUGAGAGAGUGUGUGUUUGUGUGUGUGUUUUGCCAUGAACUGUGGCCCCAGUGUAUAGUGUUUCAGUGGGGGAGAAGCUGAAAGACCAAGACU: 2.11
UUAGGCAACUUGUUUCAUAUUCUGGGCAUUUUAGUAGCUACAGUAUUUUGCAUUUAAAAUGUAAUUACUCUUAGUAUUGUACAGCCCUAUAAUGUAUGAGAACUAGUUUC: 0.383
GGAUAAUUUUUUUAAUGCACUUGUAUGUGAAGACAGUUUGUAUGACAUAAUACAAAACUUUUAAACACUUGGGCUUUCCUUUGCUUCCCUAUCAGUGGGUAGAGUUUUUG: 0.501
AACCCCUCCUUUUUGAACUUACUGUGACAAGCACAGGAACGGUCAGAAACUGGGCUCAUCACACCAAGGCAAAGCAACGGGCGAGUCUUCCUCCUUGUCCUAGUUACUGC: 0.201
GUAAUCAAGCACGGAUCUUCUCAGCCAAGCCCAUUUCCUGCCCUGAGGUUUGGGAGUGGGAUAAGGAGAGGAGACCGACUUCGGAGGUCCCUGAAAUAAAGUGAUACAAU: 0.253
GCUCCGCCUCAGCCUUGAGAACUCCACGUGGGCUGGGUGGGAAGGUGCUGACGAUUUUCACACUGUGUUUACCACUCCAUCACCUCUCAACCUUUGCUUCGACAGGUCUU: 0.337
UGGACUCCAGCCCUUCAGGAGGCAAGAGGAAAAAAGUGCUCUCGGUUCCCCAGGGGAUCUCUGGGAAAGACACUACCGCAGCCACCGGACUCUUGGCGGAUCGGUCCAGU: 0.331

Set 3 — method: protein binding microarray; form: double-stranded DNA, one strand shown; matrix: in vitro; concentration: not given; baseline: not given; reading: higher = stronger binding; measurement: E-score
Target: Histone acetyltransferase KAT6A, winged helix 2, GST fusion (KAT6A, Homo sapiens, UniProt Q92794, residues 85-181)
Setting: 8-mer, flanks averaged, mean of 2 arrays, mostly near background
Residues (chain): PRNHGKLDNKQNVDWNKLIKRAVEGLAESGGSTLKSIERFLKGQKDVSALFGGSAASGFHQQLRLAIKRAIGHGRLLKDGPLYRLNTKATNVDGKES
ACTGCATG: 0.067
ACCATCCC: -0.0229
GATCAAGA: 0.147
CAACCTAC: 0.0166
GGGCCTCA: 0.179
CGCCTGGC: 0.229
AAGGATTC: -0.0167
GATGCGTA: -0.087
AACATCCG: 0.0783
GAGTCTTA: -0.256
GATGTGGA: -0.0408
AGCATGTA: -0.299
GCCAAGTA: -0.171
CTCGGTTA: -0.0337
GTACACAA: 0.0214
AGCGAATA: 0.00131
ACGGCACC: -0.0961
GAGATGGC: -0.1
CAGCGTCA: 0.0223
GACATATC: -0.0476
TGTCTTAA: 0.0246
GGACGGAA: -0.071

Set 4 — method: RNAcompete; form: RNA; matrix: in vitro; concentration: 20 nM; setting: 7-mer, probes averaged, single round; baseline: mean of 7-mers; reading: higher = stronger binding; measurement: 7-mer Z-score
Target: PABPC1L2, full length, GST fusion (mouse, UniProt A0ABA7IW68)
Target sequence (chain): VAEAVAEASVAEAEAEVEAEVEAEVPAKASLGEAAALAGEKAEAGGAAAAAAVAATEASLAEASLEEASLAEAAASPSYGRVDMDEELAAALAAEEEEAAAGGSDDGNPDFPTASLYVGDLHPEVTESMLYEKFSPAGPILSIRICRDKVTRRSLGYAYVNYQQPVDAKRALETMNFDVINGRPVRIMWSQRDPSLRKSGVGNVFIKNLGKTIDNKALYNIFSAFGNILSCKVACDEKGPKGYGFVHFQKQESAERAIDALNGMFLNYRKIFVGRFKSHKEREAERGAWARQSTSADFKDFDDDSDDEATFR
AUGGCAU: 0.0424
CUUUAAG: 0.432
UCAUUAC: -0.242
AAAGGAC: 1.11
GUCAGCG: -0.157
ACCUUUU: -0.144
AUGUUGA: -0.0899
GACGUGC: 0.0315
UAAAAGC: 1.39
CUGACAC: -0.0844
GGUCCCA: -0.258
CUUGAUA: -0.162
CAAAGAA: 1.28
CGCGCCA: -0.286
CAAGGCG: 0.202
GCUCGAU: -0.175
CCUACGC: -0.36
AUAAGUU: -0.119
UAAUAUU: -0.195

A few entries again (set 2):
CCCGCCCGACACCUGCGUGAGCCCUAGGAUCCAGGUCCUCUCUCACCUCUGACCCAGCUCCAUGCCAGAGCAGGAGCCCCGGUCAAUUUUGGACUCUGCACUCCCUCUCC: 0.467
ACGAAGAAUUUGGAAUAGGUUUGGUUACAUCUAUUUCUCAUCCCCUUAUUUUCCACCAUUUAAAAAUAAUAAACAUGUUUCUUACCACCGUAUGUUCAUAUGGAUAAGAC: 0.358
GAGAUGUGUGUUUGACUGUGAGAGAGUGUGUGUUUGUGUGUGUGUUUUGCCAUGAACUGUGGCCCCAGUGUAUAGUGUUUCAGUGGGGGAGAAGCUGAAAGACCAAGACU: 2.11
UUAGGCAACUUGUUUCAUAUUCUGGGCAUUUUAGUAGCUACAGUAUUUUGCAUUUAAAAUGUAAUUACUCUUAGUAUUGUACAGCCCUAUAAUGUAUGAGAACUAGUUUC: 0.383
GGAUAAUUUUUUUAAUGCACUUGUAUGUGAAGACAGUUUGUAUGACAUAAUACAAAACUUUUAAACACUUGGGCUUUCCUUUGCUUCCCUAUCAGUGGGUAGAGUUUUUG: 0.501
AACCCCUCCUUUUUGAACUUACUGUGACAAGCACAGGAACGGUCAGAAACUGGGCUCAUCACACCAAGGCAAAGCAACGGGCGAGUCUUCCUCCUUGUCCUAGUUACUGC: 0.201
